Results collected from several papers.
Numbered parts are unrelated; each lists some results of a single study. Several values in a cell are separate wells, animals, samples, runs or records.
UniProt Q9H0K1, sequence (whole entry, looked up): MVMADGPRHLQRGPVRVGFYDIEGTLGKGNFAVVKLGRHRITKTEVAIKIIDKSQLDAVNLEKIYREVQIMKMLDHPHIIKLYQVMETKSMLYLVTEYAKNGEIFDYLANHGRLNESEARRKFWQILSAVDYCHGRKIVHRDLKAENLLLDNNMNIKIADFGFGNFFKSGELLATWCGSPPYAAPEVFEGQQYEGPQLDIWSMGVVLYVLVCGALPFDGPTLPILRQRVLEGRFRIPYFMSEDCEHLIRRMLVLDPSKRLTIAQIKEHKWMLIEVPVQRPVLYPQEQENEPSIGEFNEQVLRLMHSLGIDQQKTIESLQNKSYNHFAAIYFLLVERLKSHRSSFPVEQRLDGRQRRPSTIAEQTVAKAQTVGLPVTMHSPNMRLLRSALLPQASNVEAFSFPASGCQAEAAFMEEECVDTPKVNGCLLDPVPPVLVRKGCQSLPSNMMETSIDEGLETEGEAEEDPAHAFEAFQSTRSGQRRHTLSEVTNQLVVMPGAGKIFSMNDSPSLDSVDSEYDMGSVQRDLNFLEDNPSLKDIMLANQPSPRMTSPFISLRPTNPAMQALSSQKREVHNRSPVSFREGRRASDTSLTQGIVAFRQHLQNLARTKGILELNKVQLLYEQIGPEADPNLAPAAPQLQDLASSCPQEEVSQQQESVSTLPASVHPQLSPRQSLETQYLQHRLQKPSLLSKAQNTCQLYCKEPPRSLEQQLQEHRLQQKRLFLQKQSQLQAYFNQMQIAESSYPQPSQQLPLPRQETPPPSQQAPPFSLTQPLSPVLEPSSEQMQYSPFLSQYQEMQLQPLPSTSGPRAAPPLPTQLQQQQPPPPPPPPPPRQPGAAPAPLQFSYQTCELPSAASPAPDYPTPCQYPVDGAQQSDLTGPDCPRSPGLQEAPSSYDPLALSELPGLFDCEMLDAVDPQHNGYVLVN
UniProt Q04759, sequence (whole entry, looked up): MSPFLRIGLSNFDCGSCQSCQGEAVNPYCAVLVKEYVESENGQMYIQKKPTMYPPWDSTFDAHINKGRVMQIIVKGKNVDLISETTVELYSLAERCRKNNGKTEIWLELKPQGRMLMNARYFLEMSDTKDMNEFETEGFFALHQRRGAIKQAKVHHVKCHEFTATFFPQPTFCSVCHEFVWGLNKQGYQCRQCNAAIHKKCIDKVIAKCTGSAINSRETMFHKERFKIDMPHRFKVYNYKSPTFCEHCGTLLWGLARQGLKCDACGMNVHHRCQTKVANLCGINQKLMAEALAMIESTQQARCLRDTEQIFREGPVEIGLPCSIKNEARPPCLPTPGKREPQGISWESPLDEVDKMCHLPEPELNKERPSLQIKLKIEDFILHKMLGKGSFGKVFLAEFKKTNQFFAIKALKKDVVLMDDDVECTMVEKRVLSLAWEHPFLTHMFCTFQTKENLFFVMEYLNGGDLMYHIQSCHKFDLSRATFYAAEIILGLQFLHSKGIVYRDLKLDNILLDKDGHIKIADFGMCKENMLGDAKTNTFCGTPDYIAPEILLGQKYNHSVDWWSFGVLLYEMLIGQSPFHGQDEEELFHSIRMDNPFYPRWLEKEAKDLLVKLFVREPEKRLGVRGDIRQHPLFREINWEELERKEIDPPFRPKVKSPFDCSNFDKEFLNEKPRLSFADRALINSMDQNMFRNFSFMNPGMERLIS
UniProt P42336, sequence (whole entry, unmodified, looked up): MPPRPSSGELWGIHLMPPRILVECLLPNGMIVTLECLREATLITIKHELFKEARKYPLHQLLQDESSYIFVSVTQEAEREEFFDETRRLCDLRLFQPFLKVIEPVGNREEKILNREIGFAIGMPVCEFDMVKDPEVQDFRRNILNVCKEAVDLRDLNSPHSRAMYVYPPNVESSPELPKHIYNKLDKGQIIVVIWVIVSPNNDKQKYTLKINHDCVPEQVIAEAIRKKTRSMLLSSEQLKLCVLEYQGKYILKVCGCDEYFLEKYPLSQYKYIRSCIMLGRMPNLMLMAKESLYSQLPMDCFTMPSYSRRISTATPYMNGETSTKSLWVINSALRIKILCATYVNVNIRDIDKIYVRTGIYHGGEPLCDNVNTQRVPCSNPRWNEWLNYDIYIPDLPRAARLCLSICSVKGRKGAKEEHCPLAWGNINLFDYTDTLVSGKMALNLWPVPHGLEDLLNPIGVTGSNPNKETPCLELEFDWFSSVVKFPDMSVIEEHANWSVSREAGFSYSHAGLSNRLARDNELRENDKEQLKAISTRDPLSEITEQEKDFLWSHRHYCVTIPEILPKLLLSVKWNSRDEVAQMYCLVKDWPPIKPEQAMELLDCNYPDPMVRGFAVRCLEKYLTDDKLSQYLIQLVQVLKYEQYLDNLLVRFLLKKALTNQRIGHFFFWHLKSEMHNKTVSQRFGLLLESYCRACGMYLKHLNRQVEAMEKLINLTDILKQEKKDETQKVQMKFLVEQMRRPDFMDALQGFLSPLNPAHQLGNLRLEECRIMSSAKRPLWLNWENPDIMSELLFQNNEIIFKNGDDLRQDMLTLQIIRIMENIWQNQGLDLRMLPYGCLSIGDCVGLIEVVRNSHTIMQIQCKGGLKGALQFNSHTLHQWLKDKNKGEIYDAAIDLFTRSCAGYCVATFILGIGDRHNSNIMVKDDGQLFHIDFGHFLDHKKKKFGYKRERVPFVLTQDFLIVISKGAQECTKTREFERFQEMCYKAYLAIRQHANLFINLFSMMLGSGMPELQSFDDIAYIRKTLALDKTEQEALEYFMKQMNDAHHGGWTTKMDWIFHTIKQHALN
UniProt Q9NY57, sequence (whole entry, looked up): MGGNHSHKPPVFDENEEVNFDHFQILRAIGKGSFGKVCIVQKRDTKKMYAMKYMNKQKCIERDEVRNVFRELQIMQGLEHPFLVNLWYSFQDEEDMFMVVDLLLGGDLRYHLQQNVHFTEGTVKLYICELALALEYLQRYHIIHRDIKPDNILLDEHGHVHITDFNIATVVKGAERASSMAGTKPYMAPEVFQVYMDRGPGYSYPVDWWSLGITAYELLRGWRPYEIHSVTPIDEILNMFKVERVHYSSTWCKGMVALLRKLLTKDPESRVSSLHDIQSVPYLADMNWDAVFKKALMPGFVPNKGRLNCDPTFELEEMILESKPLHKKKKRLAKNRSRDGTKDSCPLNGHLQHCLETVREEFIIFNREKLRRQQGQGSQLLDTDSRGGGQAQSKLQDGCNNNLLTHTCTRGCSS
UniProt P61075, sequence (whole entry, looked up): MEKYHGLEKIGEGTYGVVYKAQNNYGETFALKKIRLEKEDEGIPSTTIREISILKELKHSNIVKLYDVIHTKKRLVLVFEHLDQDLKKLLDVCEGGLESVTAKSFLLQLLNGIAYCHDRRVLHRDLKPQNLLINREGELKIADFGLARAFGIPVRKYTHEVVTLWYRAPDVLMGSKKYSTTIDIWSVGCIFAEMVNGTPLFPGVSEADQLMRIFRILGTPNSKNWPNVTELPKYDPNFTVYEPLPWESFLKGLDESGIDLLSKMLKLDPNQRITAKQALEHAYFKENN
UniProt Q6P3R8, sequence (whole entry, looked up): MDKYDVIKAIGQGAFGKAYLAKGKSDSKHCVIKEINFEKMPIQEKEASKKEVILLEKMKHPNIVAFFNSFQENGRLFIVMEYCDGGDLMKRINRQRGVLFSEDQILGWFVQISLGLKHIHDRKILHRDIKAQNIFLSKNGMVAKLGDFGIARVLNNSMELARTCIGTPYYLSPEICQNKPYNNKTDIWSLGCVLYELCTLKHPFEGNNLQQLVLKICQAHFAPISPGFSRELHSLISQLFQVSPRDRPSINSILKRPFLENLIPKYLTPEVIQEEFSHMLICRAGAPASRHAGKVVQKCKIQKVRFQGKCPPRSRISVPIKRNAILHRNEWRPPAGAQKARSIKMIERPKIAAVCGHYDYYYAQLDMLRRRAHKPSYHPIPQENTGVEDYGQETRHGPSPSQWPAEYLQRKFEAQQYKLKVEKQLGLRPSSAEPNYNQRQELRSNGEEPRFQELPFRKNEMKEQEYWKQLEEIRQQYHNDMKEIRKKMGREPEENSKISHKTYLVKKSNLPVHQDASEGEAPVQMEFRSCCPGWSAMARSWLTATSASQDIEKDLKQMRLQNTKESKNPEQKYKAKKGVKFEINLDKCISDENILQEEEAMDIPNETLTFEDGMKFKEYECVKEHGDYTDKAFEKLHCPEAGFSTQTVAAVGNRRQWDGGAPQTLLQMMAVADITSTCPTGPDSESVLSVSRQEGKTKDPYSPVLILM
UniProt Q13546, sequence (whole entry, looked up): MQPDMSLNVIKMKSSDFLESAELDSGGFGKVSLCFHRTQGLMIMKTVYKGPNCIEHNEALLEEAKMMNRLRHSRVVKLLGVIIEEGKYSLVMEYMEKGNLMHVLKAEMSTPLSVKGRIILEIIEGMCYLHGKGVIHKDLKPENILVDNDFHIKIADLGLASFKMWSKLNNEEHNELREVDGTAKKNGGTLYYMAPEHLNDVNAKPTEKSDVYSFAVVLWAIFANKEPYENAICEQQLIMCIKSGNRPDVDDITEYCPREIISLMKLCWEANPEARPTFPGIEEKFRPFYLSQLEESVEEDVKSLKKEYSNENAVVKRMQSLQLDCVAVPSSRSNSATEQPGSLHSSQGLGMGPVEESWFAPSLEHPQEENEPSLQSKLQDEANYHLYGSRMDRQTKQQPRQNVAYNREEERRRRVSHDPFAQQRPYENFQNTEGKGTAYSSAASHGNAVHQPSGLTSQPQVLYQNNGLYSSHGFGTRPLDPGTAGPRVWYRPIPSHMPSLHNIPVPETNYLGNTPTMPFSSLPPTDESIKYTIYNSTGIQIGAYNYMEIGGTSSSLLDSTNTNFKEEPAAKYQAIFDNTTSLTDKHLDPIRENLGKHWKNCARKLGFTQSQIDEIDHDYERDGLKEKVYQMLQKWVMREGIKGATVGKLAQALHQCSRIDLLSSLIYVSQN

Block 1 — effect on: cell-free assay; tested at: 1 µM
Structure (SMILES): C[C@H]1CC[C@H](n2c3cnccc3c3cnc(Nc4ccc5c(n4)CCN(C(=O)CO)C5)nc32)CC1
It gave 41% for remaining signal (Cyclin-dependent kinase 2 homolog (CRK2, Plasmodium falciparum, UniProt P61075)).
For Protein kinase C theta type (PRKCQ, Homo sapiens, UniProt Q04759): remaining signal read 86%.
It gave 97% for remaining signal (Receptor-interacting serine/threonine-protein kinase 1 (RIPK1, Homo sapiens, UniProt Q13546)).
It gave 100% for remaining signal (Mitogen-activated protein kinase 6 (MAPK6, Homo sapiens, UniProt Q16659)).
The remaining signal was 84% (Epidermal growth factor receptor (EGFR, Homo sapiens, UniProt P00533, del752-759)).
Serine/threonine-protein kinase 32B (STK32B, Homo sapiens, UniProt Q9NY57) — remaining signal: 100%.

Block 2 — effect on: cell-free assay; technique: competition with immobilised ligand; tested at: 1 µM
SMILES: CS(=O)(=O)NCC[C@H](NC(=O)c1cncc2c1cnn2-c1ccc(F)cc1)c1ccnc(S(C)(=O)=O)c1
For Epidermal growth factor receptor (EGFR, Homo sapiens, UniProt P00533, del747-750/T751S): remaining binding read 100%.
For Dual specificity protein kinase TTK (TTK, Homo sapiens, UniProt P33981): remaining binding read 91%.
The remaining binding was 100% (Serine/threonine-protein kinase SIK2 (SIK2, Homo sapiens, UniProt Q9H0K1)).
For Phosphatidylinositol 4,5-bisphosphate 3-kinase catalytic subunit alpha isoform (PIK3CA, Homo sapiens, UniProt P42336, E542K): remaining binding read 66%.
It gave 100% for remaining binding (Serine/threonine-protein kinase Nek5 (NEK5, Homo sapiens, UniProt Q6P3R8)).
For Tyrosine-protein kinase ABL1, non-phosphorylated (ABL1, Homo sapiens, UniProt P00519, F317L): remaining binding read 100%.

Block 3 — effect on: enzyme activity; action: inhibitor; tested at: 0.5 µM; baseline: control
Target: Serine/threonine-protein kinase 3 (STK3, Homo sapiens, UniProt Q13188)
Residues (Q13188 1-491): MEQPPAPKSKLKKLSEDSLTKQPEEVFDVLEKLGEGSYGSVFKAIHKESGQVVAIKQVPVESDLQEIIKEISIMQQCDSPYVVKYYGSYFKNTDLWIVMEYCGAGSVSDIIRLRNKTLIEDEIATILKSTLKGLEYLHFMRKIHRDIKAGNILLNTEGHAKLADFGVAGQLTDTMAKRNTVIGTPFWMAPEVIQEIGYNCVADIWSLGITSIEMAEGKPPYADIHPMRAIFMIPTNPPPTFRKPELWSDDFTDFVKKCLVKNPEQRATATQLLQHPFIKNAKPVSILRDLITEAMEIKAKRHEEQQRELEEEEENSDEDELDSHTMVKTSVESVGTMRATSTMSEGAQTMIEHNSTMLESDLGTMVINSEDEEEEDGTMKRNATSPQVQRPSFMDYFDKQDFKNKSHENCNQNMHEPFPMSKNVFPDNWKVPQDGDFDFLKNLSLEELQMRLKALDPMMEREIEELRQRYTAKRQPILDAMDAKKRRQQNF
Nc1[nH]nc2nc3ccccc3nc12 gave a remaining activity of 88.9%.
C#Cc1cccc(Nc2ncnc3cc(OCCOC)c(OCCOC)cc23)c1 has a remaining activity of 94.9%.
With COc1cc2ncnc(Nc3ccc(F)c(Cl)c3)c2cc1OCCCN1CCOCC1 the remaining activity was 93.6%.
Cn1c2ccccc2c2c3c(c4c5ccccc5n(CCC#N)c4c21)CNC3=O gave a remaining activity of 3.07%.
For Cc1cccc(-c2[nH]c(C(C)(C)C)nc2-c2ccc3c(c2)OCO3)n1, the remaining activity was 97.7%.
With COc1ccc(C(=O)Nc2sc3c(c2C(N)=O)CCCC3)cc1OC the remaining activity was 99.6%.
With O=C(Nc1cccc(Nc2cc(Nc3cccc(C(F)(F)F)c3)ncn2)c1)C1CC1 the remaining activity was 102%.
OCC(O)CCON=C1C(c2c(O)[nH]c3ccccc23)=Nc2ccccc21 (centres unmarked) gave a remaining activity of 4.81%.
With COc1cc2ncnc(Nc3ccc(Oc4ccccc4)cc3)c2cc1OC the remaining activity was 121%.
With COc1ccc(OC)c2c(=S)c3ccccc3[nH]c12 the remaining activity was 104%.
For Cc1ccc(Nc2nccc(N(C)c3ccc4c(C)n(C)nc4c3)n2)cc1S(N)(=O)=O, the remaining activity was 95.4%.
N#CC(C#N)=C(N)/C(C#N)=C/c1ccc(O)cc1 has a remaining activity of 95.2%.
For O=C1NC(=O)C(c2cn(CCCn3ccnc3)c3ccccc23)=C1Nc1ccccc1, the remaining activity was 52%.
Cc1nc(-c2ccccc2)c(-c2ccncc2)o1 gave a remaining activity of 104%.
For Cn1sc(=O)n(Cc2ccccc2)c1=O, the remaining activity was 93.2%.
COc1cc2nccc(Oc3ccc(NC(=S)NC(=O)c4ccccc4C)cc3)c2cc1OC gave a remaining activity of 86%.

Block 4 — cell line: A-375; tested at: 100 µM; time: 18 h
The viability of O=C(O)[C@H]1O[C@H](O)[C@H](O)[C@@H](O)[C@@H]1O is reported as 94.9%.
With CN1CCc2c(c3ccccc3n2Cc2ccccc2)C1 the viability was 94.4%.
With NCCC(O)(P(=O)(O)O)P(=O)(O)O the viability was 96.5%.
With CCC[C@@H]1C[C@@H](C(=O)N[C@@H]([C@H]2O[C@H](SC)[C@H](O)[C@@H](O)[C@H]2O)[C@@H](C)O)N(C)C1 the viability was 95.1% and 92.6%.

Excerpt of the above (block 3):
For O=C1NC(=O)C(c2cn(CCCn3ccnc3)c3ccccc23)=C1Nc1ccccc1, the remaining activity was 52%.
With O=C(Nc1cccc(Nc2cc(Nc3cccc(C(F)(F)F)c3)ncn2)c1)C1CC1 the remaining activity was 102%.
For Cc1cccc(-c2[nH]c(C(C)(C)C)nc2-c2ccc3c(c2)OCO3)n1, the remaining activity was 97.7%.
For Cc1ccc(Nc2nccc(N(C)c3ccc4c(C)n(C)nc4c3)n2)cc1S(N)(=O)=O, the remaining activity was 95.4%.
Nc1[nH]nc2nc3ccccc3nc12 gave a remaining activity of 88.9%.
